Results of several laboratories.
Lines come from different studies, so protocols differ. “And” joins repeats or separate records; there may be more than shown. ± marks the error that the study gave.

Cn1cnnc1SCC(=O)C12CC3CC(CC(C3)C1)C2
intrinsic clearance (human liver microsomes; 40 min, together with: NADPH): ~9 µL/min/mg

C[C@H](N)C(=O)N1C[C@H](CCCB(O)O)[C@](N)(C(=O)O)C1
median tmax (human patients, plasma; oral, 150 mg single dose, cycle 1 day 1): 6 h

[11CH3]c1cnccc1N
brain to blood SUV ratio (ex vivo gamma counting; Sprague Dawley rat, whole brain and blood; intravenous, dose not given, 60 min): 1.85 ± 0.23

CC(C)NCC1CCc2cc(CO)c([N+](=O)[O-])cc2N1 (stereo not drawn)
intrinsic clearance (mouse liver microsomes; 1 µM, pH 7.4, 1.0 mg protein/mL): 100 µL/min/mg

O=c1c(-c2ccc(O)cc2)coc2cc(O)cc(O)c12
EC20 (cytochrome c release, ELISA; BALB/cByJ female mouse liver mitochondria; 30 min; baseline: alamethicin maximal release): > 200 µM

CC(=O)N[C@@H](Cc1ccccc1)C(=O)N[C@H]1CCCNC(=O)[C@H](CCCNC(=N)N)NC(=O)[C@H](Cc2c[nH]c3ccccc23)NC(=O)[C@@H](CC2CCCCC2)NC(=O)[C@@H]2CCCN2C1=O
elimination half-life (C57BL/6J mice, brain; intravenous, 1 mg/kg): 1.93 h

CCCC[C@@H]1NC(=O)[C@@H](NC(=O)[C@H](CCC(=O)O)NC(=O)CNC(=O)CN2CCN(CC(=O)O)CCN(CC(=O)O)CCN(CC(=O)O)CC2)CCCCNC(=O)C[C@@H](C(N)=O)NC(=O)[C@H](C(C)C)NC(=O)[C@@H]2CCCN2C(=O)[C@H](CCCNC(=N)N)NC(=O)CNC(=O)[C@H](Cc2c[nH]c3ccccc23)NC(=O)[C@H](CCCNC(=N)N)NC(=O)[C@@H](Cc2ccccc2)NC(=O)[C@H](Cc2c[nH]cn2)NC(=O)[C@H](CCC(=O)O)NC1=O [indium-111 labelled]
tissue uptake (normal C57 mice, bone; intravenous, 0.037 MBq, 4 h): 0.06 ± 0.04 %ID/g

CNC(=O)c1cc(Oc2ccc(NC(=O)Nc3ccc(Cl)c(C(F)(F)F)c3)cc2)ccn1
t1/2 (LC-MS/MS; nude mouse subcutaneous tumour model, tumour tissue; intratumoral, 2 mg/kg, PDC 4 miR-3609): 41 ± 7.41 h

CC1=C(/C=C/C(C)=C/C=C/C(C)=C/C(=O)Nc2ccc(O)cc2)C(C)(C)CCC1
Km (substrate, refers to: 4'-oxo metabolite formation; human liver microsomes; 3 h, pH 7.4): 9.3 ± 3.2 µM

Cc1c(C)c2c(c(C)c1O)CCC(C)(COc1ccc(CC3SC(=O)NC3=O)cc1)O2 (stereo not drawn)
EC20 (mitochondrial swelling; BALB/cByJ female mouse liver mitochondria; 30 min, together with: succinate + rotenone; baseline: CaCl2 maximal swelling): > 200 µM

CN(c1ccccc1)c1nccc(-c2cnn3ncccc23)n1
intrinsic clearance (rat liver microsomes): 340 µL/min/mg

CNC(C)C1CCC(N)C(OC2C(N)CC(N)C(OC3OCC(C)(O)C(NC)C3O)C2O)O1 (stereo not drawn)
EC20 (cytochrome c release, ELISA; BALB/cByJ female mouse liver mitochondria; 30 min; baseline: alamethicin maximal release): > 200 µM

Cc1ccc(NC(=O)c2ccc(CN3CCN(C)CC3)cc2)cc1Nc1nccc(-c2cncc(-c3oncc3C)c2)n1
AUC(0-tau) (Parkinson's disease patients, plasma; oral, 50.0 mg once daily, day 7, 7-day dosing, mean): 32100 ng·h/mL

CC(C)[C@H](NC(=O)[C@@H]1CCCN1C(=O)[C@H](CCCNC(=N)N)NC(=O)[C@H](CS)NC(=O)[C@H](Cc1c[nH]c2ccccc12)NC(=O)[C@H](CCCNC(=N)N)NC(=O)[C@@H](Cc1ccccc1)NC(=O)[C@H](Cc1c[nH]cn1)NC(=O)[C@H](CCC(=O)O)NC(=O)[C@H](CS)NC(=O)[C@H](CS)NC(=O)[C@H](CCCCN)NC(=O)[C@@H]1CC(=O)N[C@@H](CCCNC(=N)N)C(=O)N[C@@H](C(C)C)C(=O)N[C@@H](CC(=O)O)C(=O)N[C@H](Cc2ccc(O)cc2)C(=O)N1)C(N)=O [technetium-99m labelled]
uptake ratio (C57 mouse, female, B16/F1 melanoma; intravenous, 2 h, together with: NDP-MSH 10 µg co-injected; baseline: tumour over muscle): 50.3

Cc1cc(Nc2ncc(Cl)c(Nc3ccccc3S(=O)(=O)C(C)C)n2)c(OC(C)C)cc1C1CCNCC1
AUC(0-tau) total (human, plasma; oral, 450 mg/day with food, steady state after dose 9): 23.6 µM·h and 20.3 µM·h and 23.3 µM·h and 19.7 µM·h and 16.1 µM·h and 21.3 µM·h

A few entries again:
Cc1cc(Nc2ncc(Cl)c(Nc3ccccc3S(=O)(=O)C(C)C)n2)c(OC(C)C)cc1C1CCNCC1
AUC(0-tau) total (human, plasma; oral, 450 mg/day with food, steady state after dose 9): 23.6 µM·h and 20.3 µM·h and 23.3 µM·h and 19.7 µM·h and 16.1 µM·h and 21.3 µM·h

Cn1cnnc1SCC(=O)C12CC3CC(CC(C3)C1)C2
intrinsic clearance (human liver microsomes; 40 min, together with: NADPH): ~9 µL/min/mg
